Measured values pooled from the literature.
Target: Serine/threonine-protein kinase SIK2 (SIK2, Homo sapiens, UniProt Q9H0K1)

The remaining binding of `CCN1CCN(Cc2ccc(C(=O)Nc3ccc(C)c(NCc4cnc5[nH]ccc5c4OC)c3)cc2C(F)(F)F)CC1` is reported as 52% (binding, competition with immobilised ligand; 1 µM).
With `CCn1cc(C(=O)O)c(=O)c2c(N)c(F)c(NC3CCCCC3)cc21` the inhibition was -5.6% (kinase activity; 0.1 µM, added: ATP at Km).
`Cc1cccc(O[C@H]2CCC[C@@H](C(C)CNCc3ccncc3)C2)c1` (relative stereo) gave an inhibition of -3% (enzyme activity, inhibitor; 10 µM).
With `Nc1ncc2c(n1)-c1c([nH]c3ccc(C4=CCOCC4)cc13)CCC2` the remaining binding was 98% (binding, competition with immobilised ligand; 1 µM).
`Cc1ccc(-c2c(/C=C(\C#N)C(=O)NC(C)C)n(CCCO)c3ncnc(N)c23)cc1` has a remaining binding of 52% (cell-free assay, competition with immobilised ligand; 1 µM).
`CNC(=O)C[C@H](Cc1ccc(C#N)cc1)NC(=O)c1cc(-c2ccc(CN[C@H](C)c3ccc(C)cc3)o2)ccc1Cl`: “activity vs control” 93% (enzyme activity, inhibitor; 1 µM).
For `COc1cc(Nc2nc(C)cc(-c3cnn4nc(OC)ccc34)n2)cc(C(F)(F)F)c1`, the remaining binding was 100% (binding, competition with immobilised ligand; 1 µM).
With `C=CC(=O)N1CCc2ccc(-n3c(=O)ccc4cnc5ccc(-c6cnn(C)c6)cc5c43)cc21` the remaining binding was 93% (KINOMEscan; 1 µM; reference: DMSO control).
`COc1ccc(O)cc1-c1c[nH]c2ncc(-c3cncc(C(=O)N(C)C)c3)cc12` gave an inhibition of 32.4% (binding, competition with immobilised ligand; 0.2 µM).
The inhibition of `NC(=O)C[C@H]1CCc2sc3ncnc(O[C@H]4CC[C@H](N5CCOCC5)CC4)c3c21` is reported as 9% (enzyme activity, inhibitor; 10 µM).
With `C=CC(=O)Nc1cccc(-c2cnc3[nH]cc(C(=O)NC(C)(C)C)c3n2)c1` the inhibition was 16% (kinase activity; 0.1 µM).
The remaining binding of `CCN1CCN(Cc2ccc(NC(=O)c3ccc(C)c(NC(=O)c4cncc(-c5cccs5)c4)c3)cc2C(F)(F)F)CC1` is reported as 32% (binding, competition with immobilised ligand; 1 µM).
For `C=CC(=O)N1Cc2nc(-c3cc(-c4cc(Cl)cnc4Cl)c(F)cc3F)n(-c3ccncn3)c2C1`, the inhibition was 5.6% (cell-free assay, inhibitor; 1 µM).
With `Cc1ccc(C(=O)Nc2ccc(CN3CCN(C)CC3)c(C(F)(F)F)c2)cc1C#Cc1cnc2cccnn12` the Hill slope was 0.176 (target engagement, NanoBRET; human cells).
`CN1CCN(Cc2ccc(-c3ccc(CO[C@H]4CCC[C@@H]4NC(=O)c4cc(-c5cnn(C)c5)cnc4N)cc3)cc2)CC1` has an inhibition of 17% (enzyme activity, inhibitor; 0.1 µM).

Repeated from above:
With `Nc1ncc2c(n1)-c1c([nH]c3ccc(C4=CCOCC4)cc13)CCC2` the remaining binding was 98% (binding, competition with immobilised ligand; 1 µM).
